Results collected from several papers.
Compare with care: the assays were run in different laboratories.
Cell line: CCRF-CEM
Observed: cell growth or viability

| SMILES | technique | time | IC50 [µM] |
| --- | --- | --- | --- |
| COc1ccc(C[C@H]2COC(=O)[C@@H]2Cc2ccc(OCCCCCCCCCC(=O)NO)c(OC)c2)cc1OC | CCK-8 | 48 h | > 5 |
| C[C@H]1C(NCCS)O[C@@H]2O[C@@]3(C)CC[C@H]4[C@H](C)CCC1[C@@]24OO3 (some centres unmarked) | XTT |  | 0.86 |
| CC1(C)CCC(CN2CCN(c3ccc(C(=O)NS(=O)(=O)c4ccc(NCC5COCCO5)c([N+](=O)[O-])c4)c(N4CCCOc5nc6[nH]ccc6cc54)c3)CC2)=C(c2ccc(Cl)cc2)C1 (centres unmarked) | ATP luminescence | 24 h | 0.98 |
| COc1ccc(-c2cc(=O)c3c(O)cc(O[C@@H]4O[C@H](CO)[C@@H](O)[C@H](O)[C@H]4O)cc3o2)cc1OC | resazurin | 72 h | 58.5 |
| COc1ccc(C[C@H]2COC(=O)[C@@H]2Cc2ccc(OCC(=O)Nc3ccc(C(=O)NO)cc3)c(OC)c2)cc1OC | CCK-8 | 48 h | > 5 |
| Cc1cn([C@@H]2O[C@H](CSSc3ccccn3)[C@@H](O)[C@H](F)[C@H]2O)c(=O)[nH]c1=O |  |  | 106 |
| OC[C@H]1[C@@H](O)[C@@H](O)CN1Cc1ccc(Br)cc1 | MTS | 72 h | 94 |
| CC(C)COC1O[C@@H]2O[C@@]3(C)CC[C@H]4[C@H](C)CCC([C@H]1C)[C@@]24OO3 (some centres unmarked) | XTT |  | 16.7 |
| O=c1[nH]c(=O)n([C@@H]2O[C@H](CSSC[C@H]3O[C@@H](n4cc(F)c(=O)[nH]c4=O)[C@H](O)[C@@H](F)[C@@H]3O)[C@@H](O)[C@H](F)[C@H]2O)cc1F |  |  | > 500 |
| CC1OC(OCC2OC(Oc3cc(O)c4c(=O)cc(-c5ccc(O)c(O)c5)oc4c3)C(O)C(O)C2O)C(O)C(O)C1O (centres unmarked) | resazurin | 72 h | 64.7 |
| Nc1ncnc2c1ncn2[C@@H]1O[C@H](CSSc2ccccn2)[C@@H](O)[C@H](F)[C@H]1O |  |  | 228 |
| S=C(N/N=C/c1ccc(-c2ccccc2)s1)Nc1ccccc1 |  |  | 163 |
| COc1ccc(CN2C[C@H](O)[C@H](O)[C@@H]2CO)cc1 | MTS | 72 h | 105 |
| O=c1[nH]c(=O)n([C@@H]2O[C@H](CSSc3ccccn3)[C@@H](O)[C@H](F)[C@H]2O)cc1F |  |  | 43 |

For quick reference, copied from above:
| SMILES | technique | time | IC50 [µM] |
| --- | --- | --- | --- |
| OC[C@H]1[C@@H](O)[C@@H](O)CN1Cc1ccc(Br)cc1 | MTS | 72 h | 94 |
| CC(C)COC1O[C@@H]2O[C@@]3(C)CC[C@H]4[C@H](C)CCC([C@H]1C)[C@@]24OO3 (some centres unmarked) | XTT |  | 16.7 |
